# Measured values collected from several papers.
# Lines come from different studies, so protocols differ. “And” joins repeats or separate records; there may be more than shown. Numbers after ± are the reported error.
# Chain of UniProt P07948 (whole entry, looked up): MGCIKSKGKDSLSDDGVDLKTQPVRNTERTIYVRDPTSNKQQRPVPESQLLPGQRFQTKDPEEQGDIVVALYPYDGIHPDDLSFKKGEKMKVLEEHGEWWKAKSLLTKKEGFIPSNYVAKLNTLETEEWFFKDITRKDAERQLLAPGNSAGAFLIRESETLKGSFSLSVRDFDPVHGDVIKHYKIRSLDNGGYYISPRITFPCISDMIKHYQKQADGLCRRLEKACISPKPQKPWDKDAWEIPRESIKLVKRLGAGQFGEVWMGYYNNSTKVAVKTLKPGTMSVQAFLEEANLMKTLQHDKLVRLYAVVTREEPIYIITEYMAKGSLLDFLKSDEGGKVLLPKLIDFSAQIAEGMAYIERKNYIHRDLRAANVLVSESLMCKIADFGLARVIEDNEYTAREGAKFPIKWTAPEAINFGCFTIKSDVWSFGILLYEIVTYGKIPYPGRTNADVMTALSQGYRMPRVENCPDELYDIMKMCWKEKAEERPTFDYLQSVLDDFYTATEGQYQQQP
Compound,target or system,assay,test system,setting,how to read,measurement,result
CSCC[C@H](N)C(=O)N[C@@H](C)C(=O)N[C@@H](Cc1c[nH]c2ccccc12)C(=O)N[C@@H](Cc1c[nH]cn1)C(=O)N[C@@H](CC(=O)O)C(=O)N[C@@H](CC(=O)O)C(=O)N[C@@H](CCC(=O)O)C(=O)N[C@@H](CCC(=O)O)C(=O)N[C@@H](Cc1ccccc1)C(=O)N[C@@H](C)C(=O)N[C@@H](CCCNC(=N)N)C(=O)N[C@@H](CCCNC(=N)N)C(=O)N[C@@H](CCCNC(=N)N)C(=O)N[C@@H](CCCNC(=N)N)C(=O)NCCCCCC(=O)NCCCCC(NC(=O)CCCCCNC(=O)[C@H](CCCNC(=N)N)NC(=O)[C@H](CCCNC(=N)N)NC(=O)[C@H](CCCNC(=N)N)NC(=O)[C@H](CCCNC(=N)N)NC(=O)[C@H](C)NC(=O)[C@H](Cc1ccccc1)NC(=O)[C@H](CCC(=O)O)NC(=O)[C@H](CCC(=O)O)NC(=O)[C@H](CC(=O)O)NC(=O)[C@H](CC(=O)O)NC(=O)[C@H](Cc1c[nH]cn1)NC(=O)[C@H](Cc1c[nH]c2ccccc12)NC(=O)[C@H](C)NC(=O)[C@@H](N)CCSC)C(=O)NCCCCC(NC(=O)C(CCCCNC(=O)CCCCCNC(=O)[C@H](CCCNC(=N)N)NC(=O)[C@H](CCCNC(=N)N)NC(=O)[C@H](CCCNC(=N)N)NC(=O)[C@H](CCCNC(=N)N)NC(=O)[C@H](C)NC(=O)[C@H](Cc1ccccc1)NC(=O)[C@H](CCC(=O)O)NC(=O)[C@H](CCC(=O)O)NC(=O)[C@H](CC(=O)O)NC(=O)[C@H](CC(=O)O)NC(=O)[C@H](Cc1c[nH]cn1)NC(=O)[C@H](Cc1c[nH]c2ccccc12)NC(=O)[C@H](C)NC(=O)[C@@H](N)CCSC)NC(=O)CCCCCNC(=O)[C@H](CCCNC(=N)N)NC(=O)[C@H](CCCNC(=N)N)NC(=O)[C@H](CCCNC(=N)N)NC(=O)[C@H](CCCNC(=N)N)NC(=O)[C@H](C)NC(=O)[C@H](Cc1ccccc1)NC(=O)[C@H](CCC(=O)O)NC(=O)[C@H](CCC(=O)O)NC(=O)[C@H](CC(=O)O)NC(=O)[C@H](CC(=O)O)NC(=O)[C@H](Cc1c[nH]cn1)NC(=O)[C@H](Cc1c[nH]c2ccccc12)NC(=O)[C@H](C)NC(=O)[C@@H](N)CCSC)C(N)=O (stereo partly shown),,,"C57BL/6 mouse female, uterus","dose not given, 6 h",reference: total,mean tissue distribution,1.52%
Cc1nc2cccc(OCC(C)(C)C(=O)NC(C)C)c2c(N)c1C(=O)[O-].[Na+],Escherichia coli,"reverse mutation, preincubation",WP2 uvrA,"0.13 mg/plate, without S9",,revertant colonies,24 ± 4 colonies/plate
CC(=O)NCCCC[C@@H]1NC(=O)[C@H](Cc2c[nH]c3c(C)cccc23)NC(=O)[C@H]([C@@H](C)O)NC(=O)[C@H](CC(N)=O)NC(=O)[C@@H](NC(C)=O)C(C)(C)SSC(C)(C)[C@@H](C(=O)N[C@@H](Cc2ccc(OCCN)cc2)C(=O)N[C@@H](Cc2ccc3ccccc3c2)C(=O)NC2(C(=O)N[C@@H](CCC(=O)O)C(=O)N[C@@H](CC(N)=O)C(=O)N[C@@H](Cc3cccnc3)C(=O)N(C)CC(N)=O)CCOCC2)NC1=O,,equilibrium dialysis,"rabbit, plasma",0.01 µM,,plasma protein binding,70.3 ± 1.8%
C#Cc1c(F)ccc2cc(O)cc(-c3ncc4c(N5CC6CCC(C5)N6C(=O)OC(C)OC(=O)C(CCCC)CCCCCC)nc(OC[C@@]56CCCN5C[C@H](F)C6)nc4c3F)c12 (stereo partly shown),,item: prodrug,mouse whole blood,1 µM,,t1/2,49.5 min
CCCC[C@H]1C(=O)N(C)[C@@H](CCCC)C(=O)N[C@@H](CCCNC(=O)CN2CCN(CC(=O)O)CCN(CC(=O)O)CCN(CC(=O)O)CC2)C(=O)N[C@H](C(=O)NCC(N)=O)CSCC(=O)N[C@@H](Cc2ccc(O)cc2)C(=O)N(C)[C@@H](C)C(=O)N[C@@H](CC(N)=O)C(=O)N2CCC[C@H]2C(=O)N[C@@H](Cc2c[nH]cn2)C(=O)N[C@@H](CC(C)C)C(=O)N(C)CC(=O)N[C@@H](Cc2c[nH]c3ccccc23)C(=O)N[C@@H](CO)C(=O)N[C@@H](Cc2c[nH]c3ccccc23)C(=O)N1C [gallium-68 labelled],,,"NOD/SCID mice, CHO-hPD-L1 xenograft, blood","60 min, with: blocking agent 50 µg co-injected",,tissue uptake,10.1 ± 1.82 %ID/g
NC1CCN(C(=O)Oc2ccc(C3CCCC4(C3)OOC3(O4)C4CC5CC(C4)CC3C5)cc2)CC1 (racemic),,,"male Sprague-Dawley rat, plasma","intravenous, 10 mg/kg",,Cmax,1660 ng/mL
COc1nc(CC=C(C)CC=CC(C)=CC(C)C(OC2OC(CO)C(O)C(O)C2O)C(C)=CCO)c(C)c(O)c1OC (stereo not shown),,,"C57BL/6 mouse, plasma","oral, 10 mg/kg",,MRT(0-t),25 min
O=C1NC2(CC2)COc2ncc(F)cc2[C@H]2COCCN2c2ccn3ncc1c3n2,,,"Sprague-Dawley rat, male, serum","oral, 20 mg/kg/day, end of treatment, 4-week subacute toxicity",,serum sodium,146 ± 2 mmol/L
C[C@H](NCc1ccc(-c2ccc(C(F)(F)F)cc2)cc1)C(N)=O,,metabolic stability,"mouse, liver microsomes","1 µM, 30 min, pH 7.4",,compound remaining,66%
CC[C@H](C)[C@H](NC(=O)CNC(=O)[C@H](CCSC)NC(=O)[C@H](CCC(N)=O)NC(=O)[C@H](C)NC(=O)[C@H](CCC(N)=O)NC(=O)[C@@H](NC(=O)[C@H](CC(C)C)NC(=O)[C@H](C)NC(=O)[C@H](CO)NC(=O)[C@H](CCSC)NC(=O)[C@H](CCC(=O)O)NC(=O)[C@H](CC(C)C)NC(=O)[C@H](Cc1ccc(O)cc1)NC(=O)[C@H](CO)NC(=O)[C@H](CCC(=O)O)NC(=O)[C@H](CCC(N)=O)NC(=O)[C@H](CCCNC(=N)N)NC(=O)[C@H](CCCCN)NC(=O)[C@H](CC(=O)O)NC(=O)[C@H](CC(C)C)NC(=O)[C@H](CC(N)=O)NC(=O)[C@H](Cc1ccccc1)NC(=O)[C@H](CCC(=O)O)NC(=O)[C@H](CCCCN)NC(=O)[C@@H](NC(=O)[C@H](CC(C)C)NC(=O)[C@H](CCC(=O)O)NC(=O)[C@H](CCC(=O)O)NC(=O)[C@@H](NC(=O)[C@@H](NC(=O)[C@H](CCCNC(=N)N)NC(=O)[C@H](CCCCN)NC(=O)[C@H](C)NC(=O)[C@H](Cc1ccccc1)NC(=O)[C@H](CCC(=O)O)NC(=O)[C@H](CCC(=O)O)NC(=O)[C@H](CC(C)C)NC(=O)[C@@H](N)CO)C(C)C)C(C)C)C(C)C)[C@@H](C)CC)C(=O)N[C@@H](CO)C(=O)N[C@@H](CCC(=O)O)C(=O)N[C@@H](CCCNC(=N)N)C(=O)N[C@H](C(=O)N[C@H](C(=O)N[C@@H](CCC(=O)O)C(=O)N[C@H](C(=O)N[C@H](C(=O)N[C@@H](CC(C)C)C(=O)N[C@@H](CCCNC(=N)N)C(=O)N[C@@H](Cc1c[nH]cn1)C(=O)N[C@@H](C)C(=O)N[C@@H](C)C(=O)N[C@@H](CCC(N)=O)C(=O)N[C@H](C(=O)N[C@@H](CC(C)C)C(=O)N[C@@H](CCCCN)C(=O)O)[C@@H](C)O)C(C)C)[C@@H](C)CC)[C@@H](C)CC)[C@@H](C)CC,,,"CD-1 ICR mouse, male, plasma","intravenous, 1 mg/kg",,AUMC(0-inf),85.9 µg·h²/mL
CC[C@H](C)[C@H](NC(=O)[C@H](CCCCN)NC(=O)CNC(=O)[C@H](CC(C)C)NC(=O)[C@H](Cc1ccccc1)NC(=O)[C@H](CCCCN)NC(=O)[C@H](CO)NC(=O)[C@H](Cc1ccccc1)NC(=O)[C@H](Cc1c[nH]c2ccccc12)NC(=O)[C@H](CCC(N)=O)NC(=O)[C@@H](NC(=O)[C@H](Cc1ccccc1)NC(=O)CCCCCNC(=O)CN1CCN(CC(=O)O)CCN(CC(=O)O)CCN(CC(=O)O)CC1)C(C)C)C(=O)N[C@@H](CCC(=O)O)C(=O)N1CCC[C@H]1C(=O)N[C@@H](CC(=O)O)C(=O)N[C@H](C(=O)N[C@@H](CO)C(=O)N[C@@H](CCC(N)=O)C(=O)N[C@H](C(=O)N[C@@H](CCC(N)=O)C(=O)N[C@@H](CC(=O)O)C(=O)N1CCC[C@H]1C(=O)N[C@@H](CC(N)=O)C(=O)N[C@@H](CC(=O)O)C(=O)N[C@@H](CCC(N)=O)C(=O)N[C@@H](Cc1ccc(O)cc1)C(=O)N[C@@H](CCC(=O)O)C(=O)N1CCC[C@H]1C(=O)N[C@@H](Cc1ccccc1)C(=O)O)C(C)C)C(C)C [copper-64 labelled],,dynamic PET,"mouse, CT26 tumour, checkpoint inhibitor-treated, tumour","intravenous, 100 µCi/mouse, 1860 s",,SUVmean,4.51 SUV
CCCCC[C@H]1C(=O)N[C@H](C)C(=O)N(C)[C@@H](CCCCC)C(=O)N(C)[C@H](C)C(=O)N(C)[C@@H](CCCCC)C(=O)N(C)[C@H](C)C(=O)N(C)[C@@H](CCCCC)C(=O)N(C)[C@H](C)C(=O)N1C,,"PAMPA, HPLC-UV",,"500 µM, pH 7.4",,log Papp,-5.32 ± 0.04
CN1Cc2cc(Cl)ccc2-n2c(nnc2C2CCN(c3cccc([18F])n3)CC2)C1,,PET two-tissue compartment model,"rhesus monkey, thalamus","intravenous, dose not given, 60 min scan, baseline scan",,total volume of distribution,1.1 ± 0.31 mL/cm3
Cn1nc(NS(C)(=O)=O)c2c(Cl)ccc(-n3c([C@H](Cc4cc(F)cc(F)c4)NC(=O)Cn4nc(C(F)F)c5c4C(F)(F)[C@@H]4C[C@H]54)nc4nc(OCCC(F)(F)F)ccc4c3=O)c21,,,"human, plasma","oral, 200 mg single dose, powder in bottle, geometric mean",,Cmax,169 ng/mL
CC[C@H](C)[C@H](NC(=O)[C@H](C)NC(=O)[C@H](CCCCN)NC(=O)[C@H](CC(C)C)NC(=O)[C@@H](N)Cc1ccccc1)C(=O)N[C@@H](CCCCN)C(=O)N[C@@H](CCCCN)C(=O)N[C@@H](Cc1ccccc1)C(=O)NCC(=O)N[C@@H](CCCCN)C(=O)N[C@@H](CCC(=O)O)C(=O)N[C@@H](Cc1ccccc1)C(=O)N[C@@H](CCCCN)C(=O)N[C@@H](CCCCN)C(=O)N[C@H](C(=O)NCC(=O)N[C@@H](C)C(=O)N[C@@H](CCCCN)C(=O)N[C@@H](CC(C)C)C(=O)N[C@@H](CCCCN)C(=O)O)[C@@H](C)CC,,,human red blood cells,"16 mg/L, 1 h",,hemolysis,-0.0408% and 0.449%
CN(C)[C@H]1C[C@@]23CC[C@@]4(O2)C(=CC[C@]2(C)[C@@H](c5ccc6ccncc6c5)CC[C@H]24)C=C3[C@@H](O)[C@@H]1O,"Tyrosine-protein kinase Lyn (LYN, Homo sapiens, UniProt P07948)","enzyme activity, inhibitor",,1 µM,,inhibition,-27.8%
C[C@H](O)[C@@H](NC(=O)[C@H]1CCCN1C(=O)[C@@H](CCCCN)NC(=O)[C@@H](CO)NC(=O)[C@@H](Cc1ccc(O)cc1)NC(=O)[C@@H](CC(N)=O)NC(=O)CCOCCOCCOCCNC(=O)CN1CCN(CC(=O)O)CCN(CC(=O)O)CCN(CC(=O)O)CC1)C(=O)N[C@H](CC(=O)O)C(=O)N[C@H](CCCNC(=N)N)C(=O)N[C@H](CCC(N)=O)C(=O)N[C@H](Cc1ccc(O)cc1)C(=O)N[C@H](Cc1c[nH]cn1)C(=O)N[C@H](Cc1ccccc1)C(N)=O [copper-64 labelled],,,"C57BL/6J mice, bone","intravenous, 1.85 MBq, 1.333 h, radiolabelled",,tissue uptake,0.19 ± 0.02 %ID/g
CC(C)[C@@H]1NC(=O)CNC(=O)[C@H](CC(N)=O)NC(=O)[C@H](CCCNC(=N)N)NC(=O)[C@H](Cc2ccc(O)cc2)NC(=O)[C@H](C(C)C)NC(=O)[C@@H](NC(=O)[C@@H](NC(=O)[C@H](CC(N)=O)NC(=O)[C@H](Cc2c[nH]c3ccccc23)NC(=O)[C@H](C)NC(=O)[C@H](Cc2ccccc2)NC(=O)CNC(=O)[C@H](CCCCN)NC(=O)[C@H](Cc2ccccc2)NC(=O)[C@H](Cc2ccccc2)NC(=O)[C@H](CCCCN)NC(=O)OCC2c3ccccc3-c3ccccc32)C(C)C)CSSC[C@@H](C(=O)N[C@@H](Cc2c[nH]cn2)C(=O)N[C@@H](CCCNC(=N)N)C(=O)N[C@@H](CCCNC(=N)N)C(=O)N[C@@H](C)C(=O)N[C@@H](CC(N)=O)C(N)=O)NC(=O)[C@H](C(C)C)NC(=O)[C@H](CCCNC(=N)N)NC1=O,,HPLC,mouse liver homogenate 50 mg/mL,4.00 h,,peptide remaining,46.3% and 40.3% and 43.2%
CC(CCC(=O)NCC(=O)O)C1CCC2C3C(O)CC4CC(OC5OC(C(=O)O)C(O)C(O)C5O)CCC4(C)C3CCC12C (stereo not shown),,,"men, T/T genotype, plasma","dose not given, geometric mean",,plasma concentration,37.3 ng/mL

# For quick reference, copied from above:
Compound,target or system,assay,test system,setting,how to read,measurement,result
C#Cc1c(F)ccc2cc(O)cc(-c3ncc4c(N5CC6CCC(C5)N6C(=O)OC(C)OC(=O)C(CCCC)CCCCCC)nc(OC[C@@]56CCCN5C[C@H](F)C6)nc4c3F)c12 (stereo partly shown),,item: prodrug,mouse whole blood,1 µM,,t1/2,49.5 min
CCCC[C@H]1C(=O)N(C)[C@@H](CCCC)C(=O)N[C@@H](CCCNC(=O)CN2CCN(CC(=O)O)CCN(CC(=O)O)CCN(CC(=O)O)CC2)C(=O)N[C@H](C(=O)NCC(N)=O)CSCC(=O)N[C@@H](Cc2ccc(O)cc2)C(=O)N(C)[C@@H](C)C(=O)N[C@@H](CC(N)=O)C(=O)N2CCC[C@H]2C(=O)N[C@@H](Cc2c[nH]cn2)C(=O)N[C@@H](CC(C)C)C(=O)N(C)CC(=O)N[C@@H](Cc2c[nH]c3ccccc23)C(=O)N[C@@H](CO)C(=O)N[C@@H](Cc2c[nH]c3ccccc23)C(=O)N1C [gallium-68 labelled],,,"NOD/SCID mice, CHO-hPD-L1 xenograft, blood","60 min, with: blocking agent 50 µg co-injected",,tissue uptake,10.1 ± 1.82 %ID/g
